Experimental data gathered from unrelated publications.
Each line is one published result; not all experiments were run side by side.

CC[C@H](C)[C@H](NC(=O)[C@H](Cc1ccccc1)NC(=O)[C@H](CCC(=O)O)NC(=O)[C@H](CCCCNC(=O)COCCOCCNC(=O)COCCOCCNC(=O)CC[C@H](NC(=O)CCCCCCCCCCCCCCCCC(=O)O)C(=O)O)NC(=O)[C@H](C)NC(=O)[C@H](C)NC(=O)[C@H](CCC(N)=O)NC(=O)CNC(=O)[C@H](CCC(=O)O)NC(=O)[C@H](CC(C)C)NC(=O)[C@H](Cc1ccc(O)cc1)NC(=O)[C@H](CO)NC(=O)[C@H](CO)NC(=O)[C@@H](NC(=O)[C@H](CC(=O)O)NC(=O)[C@H](CO)NC(=O)[C@@H](NC(=O)[C@H](Cc1ccccc1)NC(=O)[C@@H](NC(=O)CNC(=O)[C@H](CCC(=O)O)NC(=O)C(C)(C)NC(=O)[C@@H](N)Cc1cnc[nH]1)[C@@H](C)O)[C@@H](C)O)C(C)C)C(=O)N[C@@H](C)C(=O)N[C@@H](Cc1c[nH]c2ccccc12)C(=O)N[C@@H](CC(C)C)C(=O)N[C@H](C(=O)N[C@@H](CCCNC(=N)N)C(=O)NCC(=O)N[C@@H](CCCNC(=N)N)C(=O)NCC(=O)O)C(C)C  adverse event incidence (item: Eructation; type 2 diabetes patients; dose not given; relative to: subjects): 13.3%
NCCONC(=O)[C@@H]1CC[C@@H]2CN1C(=O)N2OS(=O)(=O)O  adverse event incidence (item: increased bile acids; healthy Chinese men; intravenous, 2 g, treatment-emergent): 0%
CC(=O)O[C@H]1C(=O)[C@@]2(C)[C@H]([C@H](OC(=O)c3ccccc3)[C@]3(O)C[C@H](OC(=O)[C@H](O)[C@@H](NC(=O)c4ccccc4)c4ccccc4)C(C)=C1C3(C)C)[C@]1(OC(C)=O)CO[C@@H]1C[C@@H]2O  adverse event incidence (item: aspartate aminotransferase increased; patients with advanced solid tumours; intravenous, dose not given, grade 3 and 4, possibly related to drug): 6%
Cc1ccc(Sc2ccccc2N2CCNCC2)c(C)c1  adverse event incidence (any TEAE; healthy adult men; oral, 10 mg single dose, 8 nights, overall): 15%
FC(F)(F)c1ccc(CNc2ccc(Cc3c[nH]c4ncc(Cl)cc34)cn2)cn1  adverse event incidence (item: neutropenia; patients with advanced solid tumours; oral, dose not given, grade 3 and 4, possibly related to drug): 9%
O=C1CCc2ccc(OCCCCN3CCN(c4cccc(Cl)c4Cl)CC3)cc2N1  adverse event incidence (item: Constipation; patients, CYP2D6 ultrarapid metabolizers; dose not given, long-acting oral or depot): 0%
Cc1cc(Nc2ccc(S(F)(F)(F)(F)F)cc2)n2nc(C(C)(F)F)nc2n1  adverse event Diarrhoea (Plasmodium falciparum malaria patients; oral, 250 mg): 9.1%
CC(C)n1c(Nc2cccnc2)nc2cnc(Nc3ccc(N4CCN(C)CC4)cc3)nc21  adverse event incidence (item: Rash; healthy male subjects; oral, 100 mg, with: itraconazole): 7.1%

For quick reference, copied from above:
CC(=O)O[C@H]1C(=O)[C@@]2(C)[C@H]([C@H](OC(=O)c3ccccc3)[C@]3(O)C[C@H](OC(=O)[C@H](O)[C@@H](NC(=O)c4ccccc4)c4ccccc4)C(C)=C1C3(C)C)[C@]1(OC(C)=O)CO[C@@H]1C[C@@H]2O  adverse event incidence (item: aspartate aminotransferase increased; patients with advanced solid tumours; intravenous, dose not given, grade 3 and 4, possibly related to drug): 6%
